# Measurements of several laboratories.
# Each line is one published result; not all experiments were run side by side. “And” joins repeats or separate records; there may be more than shown. ± gives the spread as reported.
Structure (SMILES),test,system,conditions,scale,endpoint,result
CC(=O)c1c(C)c2cnc(Nc3ccc(C4CCN(CCS(C)(=O)=O)CC4)cn3)nc2n(C2CCCC2)c1=O,,"human patients, plasma","oral, 100 mg twice daily, day 1 single dose, added: fulvestrant",,AUC(0-inf),0.929 µg·h/mL
CN1CC[C@@H](c2c(O)cc(O)c3c(=O)cc(-c4ccc(C(F)(F)F)cc4Cl)oc23)[C@@H]1CO,refers to: Epistaxis,AML,"oral, 150 mg, intermittent dosing",,patients with adverse event,50%
CC(C)(c1ccccc1)c1cc(-n2nc3ccccc3n2)c(O)c(C(C)(C)c2ccccc2)c1,,human aged 6-11 years,"concentration not given, sunscreen, 95th percentile",,daily dermal exposure dose,1.8 ng/kg/day
C=C(CN(C(=O)c1c(C(F)F)nn(C)c1F)C1CC1)c1ccc(Cl)cc1Cl,static acute toxicity test,zebrafish (Brachydanio rerio),"0.482 mg a.i./L, 24 h",,mortality,0%
O=C1NC(=O)C(c2ccccc2)(c2ccccc2)N1,PAMPA,,"200 µM, 5 h, pH 7.4",,membrane retention,17.2%
CC(C)(O)c1cc(Nc2cc(Oc3cn(C4CC4)nc3C3CCOCC3)ccn2)ccn1,Headache,"advanced cancer patients, dose escalation","oral, dose not given, 3 weeks on/1 off, all causality grade ≥3",,treatment-emergent adverse events,9%
CCc1ccc(CC/C=C/c2ccc3c(c2)C(=O)CC3)cc1,,"Sprague-Dawley rat, male","oral, 30 mg/kg/day, 14 days",,MCHC,311 g/L
CCN1[C@@H](C(=O)NC23CCC(C(=O)O)(CC2)CC3)[C@H](c2cccc(Cl)c2F)[C@]2(C(=O)Nc3cc(Cl)ccc32)C12CCCCC2,,patients with advanced solid tumours,"oral, 200 mg",,grade ≥3 Thrombocytopenia incidence,50%
COc1ccc(-c2c(-c3ccc(C#N)c(F)c3)nc(N3CCC(N)CC3)n(C)c2=O)cc1F,refers to: tumor pain,human patients,"oral, dose not given, dose escalation, NG",,serious adverse event incidence,2%
CC(C)C[C@H](NC(=O)[C@H](CCCCN)NC(=O)OCC1c2ccccc2-c2ccccc21)C(=O)N[C@H](C(=O)N[C@@H](Cc1ccccc1)C(=O)N[C@@H](Cc1ccccc1)C(=O)N[C@@H](CCCCN)C(=O)NCC(=O)N[C@@H](Cc1ccccc1)C(=O)N[C@@H](C)C(=O)N[C@@H](Cc1c[nH]c2ccccc12)C(=O)N[C@@H](CC(N)=O)C(=O)N[C@H](C(=O)N[C@H]1CSSC[C@@H](C(=O)N[C@@H](Cc2c[nH]cn2)C(=O)N[C@@H](CCCNC(=N)N)C(=O)N[C@@H](CCCNC(=N)N)C(=O)N[C@@H](C)C(=O)N[C@@H](CC(N)=O)C(N)=O)NC(=O)[C@H](C(C)C)NC(=O)[C@H](CCCNC(=N)N)NC(=O)[C@H](C(C)C)NC(=O)CNC(=O)[C@H](CC(N)=O)NC(=O)[C@H](CCCNC(=N)N)NC(=O)[C@H](Cc2ccc(O)cc2)NC(=O)[C@H](C(C)C)NC1=O)C(C)C)C(C)C,,"ICR mice, blood","intraperitoneal, 10 mg/kg, day 5",,monocytes,3.34 ± 0.33%
CCC[C@@](N)(CO)CCc1ccc(OCCCCCC(C)C)cc1,,"dog, male hounds, plasma","oral capsule, 20 mg/kg, geometric mean",,AUC(0-72 h),20.9 µM·h
COc1cccc(Oc2ccccc2NC(=O)CNC(=O)c2cccc3ccccc23)c1,,"esterase-deficient SCID mice, male","oral, 40 mg/kg/day, 14 days, toxicity study",,total protein,5.3 g/dL and 5.4 g/dL
Clc1ccc(-c2ccccc2)cc1,,"female Sprague-Dawley rats, serum","inhalation, 23 µg/rat, 0 h after exposure",,blood urea nitrogen,15 ± 4 mg/dL
C[C@H]1CN(C(=O)CC#N)[C@]12CCN(c1ncnc3[nH]ccc13)C2,,dog male and female,"oral, 3 months, repeated-dose toxicity study",,NOAEL,3 mg/kg
C[C@@H](NC(=O)N1C(=O)[C@H](Cc2ccnc(N)c2)[C@H]1C(=O)O)C1CCCCC1,,healthy adult Chinese volunteers,"continuous intravenous infusion, 2.25 mg/kg/h, 5-day infusion, CTCAE 5.0 grading",,incidence of urine erythrocyte positive,0%
Clc1cc2c(cc1Cl)Oc1cc(Cl)c(Cl)cc1O2,"RNA-Seq, refers to: Cyp1a2","Sprague-Dawley rat, female, liver",10 µg/kg,reference: vehicle,mRNA fold change,27.2 fold
COc1ccnc(C(=O)N[C@H]2COC(=O)[C@H](Cc3ccccc3)[C@@H](OC(=O)C(C)C)[C@H](C)OC2=O)c1OCOC(=O)C(C)C,soil adsorption,clay loam soil,"pH 7.2, organic carbon 4.4 %",,Freundlich coefficient KF,137 mL/g
CC(C)(C(=O)NC1C2CC3CC1CC(C(N)=O)(C3)C2)N1CCN(c2ccc(C(F)(F)F)cn2)CC1 (stereo not shown),,"human, plasma","2 mg once daily, 5 days, median",,dose-normalised free AUC(0-24),1.6 (ng·h/mL)/mg
COc1cc2c(Oc3ccc4[nH]c(C)cc4c3F)ccnc2cc1OCC1(N)CC1,,paediatric recurrent refractory sarcoma,8 mg/kg,,grade 1 or 2 Hyperuricemia,6.7%
N=C(N)NCCC[C@@H](NC(=O)[C@@H](N)Cc1ccccc1)C(=O)N[C@@H](Cc1ccccc1)C(=O)N[C@@H](CCCCN)C(N)=O,,"early Huntington's disease patients, urine","subcutaneous, 15 mg, 5.833 h, mean",,fraction of dose excreted in urine,33.7%
O=C(O)CNCP(=O)(O)O,ultrafiltration,cow milk whey,200 nM nominal in whole milk,,dose fraction in permeate,57.9%
N#C[C@@]1(n2ccc(N)nc2=O)O[C@H](CO)[C@@H](O)[C@H]1O,,"CD-1 mouse, plasma","oral, 30 mg/kg",,MRT,2.4 h
Cc1cccc(Cn2nc(C3CC3)c3c(NC(=O)c4cnc5cc(OCCN6CCN(C)CC6)ccn45)cccc32)n1,"CTCAE v4.03, refers to: vomiting",platinum-resistant ovarian cancer patients,"oral, dose not given, added: pembrolizumab IV every 3 weeks",,all-cause adverse events,9.1%
Cn1c(-c2ccc(C(N)=O)cc2F)nnc1C(C)(C)Oc1c(F)cc(Cl)cc1F,,human,"oral, dose not given, single ascending dose all doses",,subjects with device site TEAE,13.9%
CCCSc1ccc2nc(NC(=O)OC)[nH]c2c1,,"mouse, blood","oral, 50 mg/kg, tolerability, mean",,platelet distribution width,15.7%
OC[C@H]1OC(O)[C@H]([18F])[C@@H](O)[C@@H]1O (stereo partly shown),"PET/CT, bi-exponential fit","Sprague-Dawley rat, nasal cavity",intranasal,reference: dose,nasal clearance amplitude B,60.7%
CCCSc1ccc2nc(NC(=O)OC)[nH]c2c1,thermogravimetric analysis,,"concentration not given, nitrogen, 10 °C/min",,5% weight loss temperature,201 °C
O=C(Nc1ccccc1)C1CCN(C(=O)Oc2cccnc2)CC1,psychotropic effects VAS,healthy women,20 mg,"reference: pre-dose baseline, direction not given",change in Sounds score,0.2
NC(=O)c1cccc(-c2cc(OC(=O)NC3CCCCC3)ccc2O)c1,,mouse,"intravenous, 10 mg/kg",,clearance,2 L/h/kg
C=C(C)[C@@H]1CCC(C)=C[C@H]1c1c(O)cc(CCC)c(C(=O)O)c1O,LC-MS/MS,"Scn1a+/− mice, plasma","intraperitoneal, 10 mg/kg, after hyperthermia protocol",,plasma concentration,9 ± 2 µg/mL
CO[C@H]1C[C@@H]2CC[C@@H](C)[C@@](O)(O2)C(=O)C(=O)N2CCCC[C@H]2C(=O)O[C@H]([C@H](C)C[C@@H]2CC[C@@H](OC(=O)NCCOCCOCCOCCOCCOCCOCCOCCOCCC(=O)N3CCc4cc(Cn5nc(-c6ccc7oc(N)nc7c6)c6c(N)ncnc65)ccc4C3)[C@H](OC)C2)C[C@@H](O)[C@H](C)/C=C(\C)[C@@H](O)[C@@H](OC)C(=O)[C@H](C)C[C@H](C)/C=C/C=C/C=C/1C,,patients with advanced solid tumours,"intravenous, 1.6 mg/3 mg weekly, any grade",,incidence of Dyspnea TEAE,0%
C[C@]1(CO)Cc2ncn(-c3ccc(C#N)c(Cl)c3)c2C(=O)O1,,"human, plasma","40 mg once daily, fasted",,Cmax at steady state,1.3 µM
CCOC(=O)C1=C[C@@H](OC(CC)CC)[C@H](NC(C)=O)[C@@H](N)C1,,"Sprague-Dawley rat male, plasma and urine","oral, 30 mg/kg",,elimination rate constant,1.49 h⁻¹
O=S(=O)(Nc1ccccc1)c1ccc(NC(=S)Nc2ccccc2)cc1,refers to: CHOL,"female mouse, blood","oral, 20 mg/kg daily, 14 days",,blood chemistry level,139 mg/dL

# For quick reference, copied from above:
Structure (SMILES),test,system,conditions,scale,endpoint,result
C[C@]1(CO)Cc2ncn(-c3ccc(C#N)c(Cl)c3)c2C(=O)O1,,"human, plasma","40 mg once daily, fasted",,Cmax at steady state,1.3 µM
CC(C)C[C@H](NC(=O)[C@H](CCCCN)NC(=O)OCC1c2ccccc2-c2ccccc21)C(=O)N[C@H](C(=O)N[C@@H](Cc1ccccc1)C(=O)N[C@@H](Cc1ccccc1)C(=O)N[C@@H](CCCCN)C(=O)NCC(=O)N[C@@H](Cc1ccccc1)C(=O)N[C@@H](C)C(=O)N[C@@H](Cc1c[nH]c2ccccc12)C(=O)N[C@@H](CC(N)=O)C(=O)N[C@H](C(=O)N[C@H]1CSSC[C@@H](C(=O)N[C@@H](Cc2c[nH]cn2)C(=O)N[C@@H](CCCNC(=N)N)C(=O)N[C@@H](CCCNC(=N)N)C(=O)N[C@@H](C)C(=O)N[C@@H](CC(N)=O)C(N)=O)NC(=O)[C@H](C(C)C)NC(=O)[C@H](CCCNC(=N)N)NC(=O)[C@H](C(C)C)NC(=O)CNC(=O)[C@H](CC(N)=O)NC(=O)[C@H](CCCNC(=N)N)NC(=O)[C@H](Cc2ccc(O)cc2)NC(=O)[C@H](C(C)C)NC1=O)C(C)C)C(C)C,,"ICR mice, blood","intraperitoneal, 10 mg/kg, day 5",,monocytes,3.34 ± 0.33%
Cn1c(-c2ccc(C(N)=O)cc2F)nnc1C(C)(C)Oc1c(F)cc(Cl)cc1F,,human,"oral, dose not given, single ascending dose all doses",,subjects with device site TEAE,13.9%
